Literature values that unrelated publications cite.
Protocols differ between the studies behind these lines. ± gives the spread as reported.
UniProt P28566, sequence (whole entry, looked up): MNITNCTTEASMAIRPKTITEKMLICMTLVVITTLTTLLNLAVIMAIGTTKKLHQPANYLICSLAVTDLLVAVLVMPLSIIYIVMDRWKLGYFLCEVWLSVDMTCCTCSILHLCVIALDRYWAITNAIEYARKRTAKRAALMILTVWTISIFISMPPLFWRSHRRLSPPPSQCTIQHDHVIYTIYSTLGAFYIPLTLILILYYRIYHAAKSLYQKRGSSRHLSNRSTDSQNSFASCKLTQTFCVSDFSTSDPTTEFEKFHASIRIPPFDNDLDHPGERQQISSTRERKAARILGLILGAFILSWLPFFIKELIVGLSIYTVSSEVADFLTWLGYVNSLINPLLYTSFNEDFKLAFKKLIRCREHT
UniProt P25100, sequence (whole entry, looked up): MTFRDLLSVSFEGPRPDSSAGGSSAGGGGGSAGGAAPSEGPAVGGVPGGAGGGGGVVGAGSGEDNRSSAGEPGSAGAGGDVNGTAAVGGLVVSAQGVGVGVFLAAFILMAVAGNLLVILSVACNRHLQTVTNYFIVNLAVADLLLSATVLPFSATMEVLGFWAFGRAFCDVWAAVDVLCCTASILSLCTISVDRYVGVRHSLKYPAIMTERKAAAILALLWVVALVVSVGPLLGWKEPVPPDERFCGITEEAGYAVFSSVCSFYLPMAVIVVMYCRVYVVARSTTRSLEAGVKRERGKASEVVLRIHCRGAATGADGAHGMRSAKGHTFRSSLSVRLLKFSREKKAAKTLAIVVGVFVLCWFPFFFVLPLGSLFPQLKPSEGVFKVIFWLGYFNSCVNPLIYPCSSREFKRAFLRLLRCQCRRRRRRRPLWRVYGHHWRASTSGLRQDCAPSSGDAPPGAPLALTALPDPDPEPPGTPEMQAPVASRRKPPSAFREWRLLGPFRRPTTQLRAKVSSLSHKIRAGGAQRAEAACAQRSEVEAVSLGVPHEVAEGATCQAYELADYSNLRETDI

Substance	target or system	assay	test system	conditions	scale	quantity	value
C/C=C1\NC(=O)[C@H]2CSSCC/C=C/[C@H](CC(=O)N[C@H](C(C)C)C(=O)N2)OC(=O)[C@H](C(C)C)NC1=O	malignant rhabdoid tumour cells	histone acetylation and cell death	–	72 h	–	effective concentration	0.7 to 3.7 nM
C=CCN(CC=C)CCc1c[nH]c2ccc(F)cc12	ADRA1D (Homo sapiens, UniProt P25100)	–	–	–	–	Ki	> 10000 nM
C/C(=C\CCP(=O)(O)O)CO	Vgamma9Vdelta2 T cells in PBMC	cell proliferation, activator	–	3 days	–	EC50	4000 nM
Z-VAD	primary mesencephalic dopaminergic neurons	–	–	protection of over 90% neurons, with: MPP+	–	concentration for neuroprotection	> 100 µM
C=CCN(CC=C)CCc1c[nH]c2ccccc12	HTR1E (Homo sapiens, UniProt P28566)	binding	cloned human receptor	with: [3H]5-HT	–	Ki	378 nM
mithramycin	NCI-60 cell lines	–	–	–	–	GI50	18 nM
C=C(C)[C@@H]1CCC(C)=C[C@H]1c1c(O)cc(CC2CN(C(C)=O)C2)cc1O	hippocampal cultures	neuroprotection	–	with: ammonium acetate	–	EC50	50 nM
CO[C@H]1C[C@H](O[C@H]2CC[C@@]3(C)[C@@H](C2)C[C@@H]2O[C@]24[C@@H]3[C@H](O)C(=O)[C@]2(C)[C@@H](C3=CC(=O)OC3)CC[C@]42O)O[C@@H](C)[C@@H]1O	OVCAR-3	cell viability	–	72 h	–	IC50	140 ± 50 nM
YLSGADLNL	CAP1-specific CD8+ T-cell lines	–	peptide	concentration not given	reference: native CAP1 peptide, fold enhancement	T-cell recognition	> 100 fold
CO[C@@H]1CN(C)C(=O)c2ccc(NC(=O)c3ccc(-c4ccccc4)cc3)cc2OC[C@H](C)NC[C@@H]1C	HEK293, HepG2, A549	cell proliferation, inhibitor	–	–	–	AC50	5000 to 18000 nM
COc1cc(CCN)c2c(c1OC)SSSSS2	HCT-116	cell growth	–	previously reported	–	IC90	150 nM
C[C@H]1O[C@@H](O[C@H]2[C@@H](O)C[C@H](O[C@H]3[C@@H](O)C[C@H](O[C@H]4CC[C@@]5(C)[C@H](CC[C@@H]6[C@@H]5C[C@@H](O)[C@]5(C)[C@@H](C7=CC(=O)OC7)CC[C@]65O)C4)O[C@@H]3C)O[C@@H]2C)C[C@H](O)[C@@H]1O	MDA-MB-231	cell viability	–	72 h	–	IC50	310 ± 30 nM
[K+]	turkey erythrocytes	influx rate	–	–	–	EC50	~500000 nM
CCCCC/C=C\C/C=C\C/C=C\C/C=C\CCCC(=O)OC(CO)CO	cultured hippocampal neurons	neuronal spiking, inhibitor	–	–	–	EC50	63 nM

Excerpt of the above:
Substance	target or system	assay	test system	conditions	scale	quantity	value
Z-VAD	primary mesencephalic dopaminergic neurons	–	–	protection of over 90% neurons, with: MPP+	–	concentration for neuroprotection	> 100 µM
C=CCN(CC=C)CCc1c[nH]c2ccccc12	HTR1E (Homo sapiens, UniProt P28566)	binding	cloned human receptor	with: [3H]5-HT	–	Ki	378 nM
